# Results collected from several papers.
# A part holds a random share of what one study measured.
# Sequence of UniProt P00519 (whole entry, unmodified, looked up): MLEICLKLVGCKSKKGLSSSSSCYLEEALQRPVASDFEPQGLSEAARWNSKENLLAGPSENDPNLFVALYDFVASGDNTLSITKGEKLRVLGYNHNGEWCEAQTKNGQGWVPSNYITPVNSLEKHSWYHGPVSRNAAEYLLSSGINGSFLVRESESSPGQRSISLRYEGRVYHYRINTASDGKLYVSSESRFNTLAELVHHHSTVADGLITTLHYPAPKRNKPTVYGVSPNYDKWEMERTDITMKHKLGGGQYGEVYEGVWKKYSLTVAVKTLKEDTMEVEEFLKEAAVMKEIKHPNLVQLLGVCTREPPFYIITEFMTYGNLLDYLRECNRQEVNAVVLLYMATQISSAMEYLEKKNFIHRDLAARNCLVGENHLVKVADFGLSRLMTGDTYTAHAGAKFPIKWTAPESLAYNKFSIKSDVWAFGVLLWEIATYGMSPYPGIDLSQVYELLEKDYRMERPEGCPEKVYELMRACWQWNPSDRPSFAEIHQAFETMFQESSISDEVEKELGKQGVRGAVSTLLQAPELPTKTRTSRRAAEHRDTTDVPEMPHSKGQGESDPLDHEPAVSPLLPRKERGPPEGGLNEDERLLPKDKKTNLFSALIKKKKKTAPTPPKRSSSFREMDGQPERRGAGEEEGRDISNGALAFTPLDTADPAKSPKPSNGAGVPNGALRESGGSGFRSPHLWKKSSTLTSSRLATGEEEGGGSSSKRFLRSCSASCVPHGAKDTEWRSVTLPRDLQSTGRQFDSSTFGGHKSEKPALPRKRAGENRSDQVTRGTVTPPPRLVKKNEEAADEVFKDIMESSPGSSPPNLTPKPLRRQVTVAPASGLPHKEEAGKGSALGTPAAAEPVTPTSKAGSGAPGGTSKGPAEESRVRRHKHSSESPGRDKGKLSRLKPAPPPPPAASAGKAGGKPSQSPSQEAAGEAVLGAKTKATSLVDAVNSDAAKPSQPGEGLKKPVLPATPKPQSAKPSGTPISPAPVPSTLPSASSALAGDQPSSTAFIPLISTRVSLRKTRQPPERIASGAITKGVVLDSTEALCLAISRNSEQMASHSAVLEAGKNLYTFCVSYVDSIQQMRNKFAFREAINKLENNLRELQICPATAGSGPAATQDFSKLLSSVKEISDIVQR
# Sequence of UniProt Q9H3Y6 (whole entry, looked up): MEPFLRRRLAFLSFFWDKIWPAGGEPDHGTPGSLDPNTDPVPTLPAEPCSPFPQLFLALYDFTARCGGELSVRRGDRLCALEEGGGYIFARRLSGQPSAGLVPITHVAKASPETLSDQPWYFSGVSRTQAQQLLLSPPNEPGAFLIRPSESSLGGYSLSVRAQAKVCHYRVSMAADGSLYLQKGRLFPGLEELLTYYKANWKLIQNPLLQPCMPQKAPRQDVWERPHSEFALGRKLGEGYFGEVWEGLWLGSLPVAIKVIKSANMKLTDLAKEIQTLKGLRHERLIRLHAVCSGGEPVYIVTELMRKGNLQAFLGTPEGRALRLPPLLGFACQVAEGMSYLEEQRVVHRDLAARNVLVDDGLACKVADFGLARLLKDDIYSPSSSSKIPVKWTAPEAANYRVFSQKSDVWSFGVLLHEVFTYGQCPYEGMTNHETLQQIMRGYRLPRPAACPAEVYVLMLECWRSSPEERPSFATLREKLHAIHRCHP
# Sequence of UniProt O75716 (whole entry, looked up): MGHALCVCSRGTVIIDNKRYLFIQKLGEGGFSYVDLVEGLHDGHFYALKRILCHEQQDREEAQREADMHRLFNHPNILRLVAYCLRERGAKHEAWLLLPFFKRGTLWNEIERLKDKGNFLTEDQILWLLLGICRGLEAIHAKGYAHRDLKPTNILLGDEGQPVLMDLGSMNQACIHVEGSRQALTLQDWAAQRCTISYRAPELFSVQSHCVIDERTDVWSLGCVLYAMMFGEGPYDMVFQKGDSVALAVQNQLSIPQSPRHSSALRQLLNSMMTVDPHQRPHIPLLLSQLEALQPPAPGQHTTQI
# Sequence of UniProt P23458 (whole entry, looked up): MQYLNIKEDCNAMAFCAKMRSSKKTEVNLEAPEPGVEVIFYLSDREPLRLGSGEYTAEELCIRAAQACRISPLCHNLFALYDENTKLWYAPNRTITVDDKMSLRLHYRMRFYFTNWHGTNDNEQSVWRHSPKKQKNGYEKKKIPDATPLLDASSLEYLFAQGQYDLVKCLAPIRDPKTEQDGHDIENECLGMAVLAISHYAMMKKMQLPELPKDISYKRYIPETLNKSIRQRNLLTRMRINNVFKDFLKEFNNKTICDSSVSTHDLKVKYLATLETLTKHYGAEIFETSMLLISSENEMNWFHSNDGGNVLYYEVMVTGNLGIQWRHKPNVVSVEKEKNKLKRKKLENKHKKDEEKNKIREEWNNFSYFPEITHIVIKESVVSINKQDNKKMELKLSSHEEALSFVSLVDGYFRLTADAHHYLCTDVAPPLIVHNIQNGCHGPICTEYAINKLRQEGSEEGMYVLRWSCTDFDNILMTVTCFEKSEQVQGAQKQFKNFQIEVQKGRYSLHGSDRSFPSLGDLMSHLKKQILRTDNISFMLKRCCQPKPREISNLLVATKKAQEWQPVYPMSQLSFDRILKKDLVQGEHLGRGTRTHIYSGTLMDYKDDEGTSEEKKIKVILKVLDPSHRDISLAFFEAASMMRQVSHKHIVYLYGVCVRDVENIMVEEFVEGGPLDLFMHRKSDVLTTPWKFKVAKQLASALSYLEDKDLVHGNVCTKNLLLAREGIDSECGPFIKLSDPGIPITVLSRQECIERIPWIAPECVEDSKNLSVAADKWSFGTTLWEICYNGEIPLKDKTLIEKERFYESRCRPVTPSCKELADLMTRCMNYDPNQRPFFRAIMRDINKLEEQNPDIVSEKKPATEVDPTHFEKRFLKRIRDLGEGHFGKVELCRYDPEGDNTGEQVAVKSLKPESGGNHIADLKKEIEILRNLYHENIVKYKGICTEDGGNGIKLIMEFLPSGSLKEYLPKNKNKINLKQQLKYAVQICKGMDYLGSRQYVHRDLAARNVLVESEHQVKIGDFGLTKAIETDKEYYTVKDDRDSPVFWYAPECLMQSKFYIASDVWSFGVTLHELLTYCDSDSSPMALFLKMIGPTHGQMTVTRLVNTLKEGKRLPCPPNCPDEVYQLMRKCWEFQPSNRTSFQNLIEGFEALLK
# Sequence of UniProt O15530 (whole entry, looked up): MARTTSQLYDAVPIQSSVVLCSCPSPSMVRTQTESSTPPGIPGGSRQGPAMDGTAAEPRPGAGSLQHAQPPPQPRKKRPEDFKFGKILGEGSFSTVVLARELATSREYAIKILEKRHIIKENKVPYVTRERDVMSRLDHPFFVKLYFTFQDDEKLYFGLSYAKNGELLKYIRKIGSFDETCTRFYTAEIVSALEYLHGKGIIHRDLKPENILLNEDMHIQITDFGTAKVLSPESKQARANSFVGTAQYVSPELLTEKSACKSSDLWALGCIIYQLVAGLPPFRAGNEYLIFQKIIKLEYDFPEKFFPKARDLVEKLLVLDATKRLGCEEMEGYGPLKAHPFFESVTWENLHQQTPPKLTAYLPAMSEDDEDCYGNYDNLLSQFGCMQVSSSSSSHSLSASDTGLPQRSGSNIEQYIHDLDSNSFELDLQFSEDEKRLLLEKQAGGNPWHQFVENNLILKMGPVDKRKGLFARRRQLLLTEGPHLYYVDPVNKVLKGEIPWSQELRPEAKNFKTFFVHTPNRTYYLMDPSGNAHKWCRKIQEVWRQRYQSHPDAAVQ
# Sequence of UniProt Q00532 (whole entry, looked up): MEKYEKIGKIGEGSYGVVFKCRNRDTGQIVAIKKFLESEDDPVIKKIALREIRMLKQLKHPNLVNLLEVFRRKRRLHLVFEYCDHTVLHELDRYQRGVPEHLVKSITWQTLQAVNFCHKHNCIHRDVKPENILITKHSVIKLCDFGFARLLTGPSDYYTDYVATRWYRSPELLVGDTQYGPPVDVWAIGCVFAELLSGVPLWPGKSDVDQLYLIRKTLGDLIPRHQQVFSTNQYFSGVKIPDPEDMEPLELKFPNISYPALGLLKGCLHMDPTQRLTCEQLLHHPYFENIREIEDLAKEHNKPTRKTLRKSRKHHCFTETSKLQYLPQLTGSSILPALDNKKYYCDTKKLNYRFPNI
# Sequence of UniProt Q8NE63 (whole entry, looked up): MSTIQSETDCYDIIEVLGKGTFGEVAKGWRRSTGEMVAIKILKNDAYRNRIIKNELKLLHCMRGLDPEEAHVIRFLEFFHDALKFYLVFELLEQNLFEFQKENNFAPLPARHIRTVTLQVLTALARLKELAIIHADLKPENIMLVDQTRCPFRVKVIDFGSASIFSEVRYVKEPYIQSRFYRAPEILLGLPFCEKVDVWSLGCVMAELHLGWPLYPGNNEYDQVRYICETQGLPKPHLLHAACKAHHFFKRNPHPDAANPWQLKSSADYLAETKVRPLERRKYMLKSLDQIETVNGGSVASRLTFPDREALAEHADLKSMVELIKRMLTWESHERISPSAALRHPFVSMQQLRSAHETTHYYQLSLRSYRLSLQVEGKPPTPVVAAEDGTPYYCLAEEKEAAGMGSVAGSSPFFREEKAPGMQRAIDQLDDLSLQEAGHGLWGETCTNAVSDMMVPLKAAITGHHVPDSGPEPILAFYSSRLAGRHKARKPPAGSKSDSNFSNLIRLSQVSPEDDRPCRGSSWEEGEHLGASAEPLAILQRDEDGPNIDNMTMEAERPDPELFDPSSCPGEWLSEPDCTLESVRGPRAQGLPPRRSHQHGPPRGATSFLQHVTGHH

# Set 1 — observed: enzyme activity; mode: inhibitor; concentration: 0.5 µM; baseline: control
# Compound: COc1cc2ncnc(Nc3ccc(OCc4ccccc4)cc3)c2cc1OC
target,remaining activity [%]
"MAP kinase-activated protein kinase 3 (MAPKAPK3, Homo sapiens, UniProt Q16644)",102
"Calcium/calmodulin-dependent protein kinase type II subunit beta (CAMK2B, Homo sapiens, UniProt Q13554)",105
"Ribosomal protein S6 kinase alpha-6 (RPS6KA6, Homo sapiens, UniProt Q9UK32)",95.9
"Ephrin type-B receptor 4 (EPHB4, Homo sapiens, UniProt P54760)",94.6
"Ribosomal protein S6 kinase alpha-5 (RPS6KA5, Homo sapiens, UniProt O75582)",103
"Homeodomain-interacting protein kinase 4 (HIPK4, Homo sapiens, UniProt Q8NE63)",100
"Testis-specific serine/threonine-protein kinase 2 (TSSK2, Homo sapiens, UniProt Q96PF2)",104
"Tyrosine-protein kinase receptor UFO (AXL, Homo sapiens, UniProt P30530)",94.8
"Tyrosine-protein kinase Blk (BLK, Homo sapiens, UniProt P51451)",88.2
"Tyrosine-protein kinase Srms (SRMS, Homo sapiens, UniProt Q9H3Y6)",104
"Serine/threonine-protein kinase 16 (STK16, Homo sapiens, UniProt O75716)",106
"Mitogen-activated protein kinase kinase kinase kinase 4 (MAP4K4, Homo sapiens, UniProt O95819)",103
"Cyclin-dependent kinase 4, with cyclin D3 (CDK4, Homo sapiens, UniProt P11802)",102
"3-phosphoinositide-dependent protein kinase 1 (PDPK1, Homo sapiens, UniProt O15530)",103
"Ephrin type-B receptor 1 (EPHB1, Homo sapiens, UniProt P54762)",101
"Tyrosine-protein kinase ABL1 (ABL1, Homo sapiens, UniProt P00519)",98
"Homeodomain-interacting protein kinase 2 (HIPK2, Homo sapiens, UniProt Q9H2X6)",111

# Set 2 — method: protein binding microarray; form: double-stranded DNA, one strand shown; sample: in vitro; concentration: not given; baseline: not given; direction: higher = stronger binding
# Target: Histone acetyltransferase KAT6A, both winged helices, GST fusion (KAT6A, Homo sapiens, UniProt Q92794, residues 1-181)
# Notes: 8-mer, flanks averaged, mean of 2 arrays, mostly near background
# Target sequence (chain): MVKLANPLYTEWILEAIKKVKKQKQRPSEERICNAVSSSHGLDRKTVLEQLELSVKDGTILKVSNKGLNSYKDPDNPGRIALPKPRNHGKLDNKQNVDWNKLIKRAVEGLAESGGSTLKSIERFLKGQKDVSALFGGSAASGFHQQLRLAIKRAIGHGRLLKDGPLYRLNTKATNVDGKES
Sequence,E-score
GTAGTCAA,-0.116
AGCGCATC,0.226
CAAGCCGA,0.163
AAAACCTG,-0.194
CCCGACAG,0.125
AATTAACA,-0.134
ACTCTTAC,-0.102
AGACACCA,-0.173

# Set 3 — concentration: 0.1 µM
# Compound: COCCOc1nc(-c2ccc(Cl)nc2)nc2c1CN(C(=O)c1ncn3ccccc13)CC2
target,assay,remaining binding [%]
"Tyrosine-protein kinase Srms (SRMS, Homo sapiens, UniProt Q9H3Y6)","cell-free assay, competition with immobilised ligand",100
"Ephrin type-A receptor 4 (EPHA4, Homo sapiens, UniProt P54764)","cell-free assay, competition with immobilised ligand",100
"SRSF protein kinase 3 (SRPK3, Homo sapiens, UniProt Q9UPE1)","cell-free assay, competition with immobilised ligand",66
"Dual specificity mitogen-activated protein kinase kinase 7 (MAP2K7, Homo sapiens, UniProt O14733)","cell-free assay, competition with immobilised ligand",95
"Serine/threonine-protein kinase 16 (STK16, Homo sapiens, UniProt O75716)","cell-free assay, competition with immobilised ligand",100
"Homeodomain-interacting protein kinase 3 (HIPK3, Homo sapiens, UniProt Q9H422)","cell-free assay, competition with immobilised ligand",100
"Aurora kinase C (AURKC, Homo sapiens, UniProt Q9UQB9)","cell-free assay, competition with immobilised ligand",95
"Tyrosine-protein kinase ABL1, phosphorylated (ABL1, Homo sapiens, UniProt P00519, F317I)",binding,100
"Casein kinase I isoform delta (CSNK1D, Homo sapiens, UniProt P48730)","cell-free assay, competition with immobilised ligand",84
"Serine/threonine-protein kinase SIK1 (SIK1, Homo sapiens, UniProt P57059)",competition binding,100
"Tyrosine-protein kinase JAK1, JH1 (JAK1, Homo sapiens, UniProt P23458)","cell-free assay, competition with immobilised ligand",100
"Mitogen-activated protein kinase kinase kinase kinase 2 (MAP4K2, Homo sapiens, UniProt Q12851)","cell-free assay, competition with immobilised ligand",100
"Cyclin-dependent kinase-like 1 (CDKL1, Homo sapiens, UniProt Q00532)","cell-free assay, competition with immobilised ligand",61
"Myosin-IIIb (MYO3B, Homo sapiens, UniProt Q8WXR4)","cell-free assay, competition with immobilised ligand",67
"Serine/threonine-protein kinase ICK (CILK1, Homo sapiens, UniProt Q9UPZ9)","cell-free assay, competition with immobilised ligand",100
"Peripheral plasma membrane protein CASK (CASK, Homo sapiens, UniProt O14936)","cell-free assay, competition with immobilised ligand",95

# Set 4 — method: protein-binding microarray; form: double-stranded DNA, one strand shown; sample: in vitro; concentration: 0.8 µM; notes: whole 60-bp probe, no competitor; direction: higher = stronger binding; shared flanks, not repeated: … GTCTTGATTCGCTTGACGCTGCTG
# Target: Centromere-binding protein 1, full length, N-terminal tag (CBF1, Saccharomyces cerevisiae, UniProt P17106, residues 1-351)
# Sequence of UniProt P17106 (whole entry, looked up): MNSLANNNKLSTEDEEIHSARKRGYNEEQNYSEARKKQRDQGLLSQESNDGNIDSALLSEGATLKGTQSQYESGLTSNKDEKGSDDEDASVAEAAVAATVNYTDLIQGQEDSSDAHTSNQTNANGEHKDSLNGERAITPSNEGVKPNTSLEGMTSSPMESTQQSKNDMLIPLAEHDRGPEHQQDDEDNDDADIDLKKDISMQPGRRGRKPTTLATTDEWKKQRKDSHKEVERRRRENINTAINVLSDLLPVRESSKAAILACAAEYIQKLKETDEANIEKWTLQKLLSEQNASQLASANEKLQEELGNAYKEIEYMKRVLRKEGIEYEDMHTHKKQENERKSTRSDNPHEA
Sequence,fluorescence intensity [a.u.]
CCTAACTACTATATACACGAGGTATAGCTTCGTACA,621
CTAGCAACAAATACATGTGAGCTTAGAAAGATATTC,657
GAAATGATTCCTTTTCACGCGCATTTTTTTCAGTAG,678
CTACGTTACCAACGTCACCTCCCCAAGCTCTTGTTC,473
CTAGAAATTTCACGTGATGTAATCTGATGAAGGTTC,10700
GAAGGGTCCTACTGATGACGGGCTGGCAAACGGTAG,498
GAAAAAGTATACAACTACGTGGCTAAAAATTTTTAG,496
CTAGCCCAGTTAATTTTCGTGATTTTTCCCTTCTTC,524

# Some of these lines once more (set 1):
target,remaining activity [%]
"Ephrin type-B receptor 1 (EPHB1, Homo sapiens, UniProt P54762)",101
"3-phosphoinositide-dependent protein kinase 1 (PDPK1, Homo sapiens, UniProt O15530)",103
"Homeodomain-interacting protein kinase 4 (HIPK4, Homo sapiens, UniProt Q8NE63)",100
"MAP kinase-activated protein kinase 3 (MAPKAPK3, Homo sapiens, UniProt Q16644)",102
